Results collected from several papers.
Lines come from different studies, so protocols differ. ± marks the error that the study gave.

CCCC[C@H](NC(=O)CNC(=O)CNC(=O)CN1CCN(CC(=O)O)CCN(CC(=O)O)CCN(CC(=O)O)CC1)C(=O)N[C@H]1CC(=O)NCCCC[C@@H](C(N)=O)NC(=O)[C@H](Cc2c[nH]c3ccccc23)NC(=O)[C@H](CCCNC(=N)N)NC(=O)[C@@H](Cc2ccccc2)NC(=O)[C@H](Cc2c[nH]cn2)NC1=O [gallium-67 labelled] has a tissue uptake of 1.04 ± 0.24 %ID/g (female C57 mice, B16/F1 melanoma, bone; intravenous, 0.037 MBq, 2 h).
CCCC[C@H](NC(=O)CN1CCC(NC(=O)CN2CCN(CC(=O)O)CCN(CC(=O)O)CCN(CC(=O)O)CC2)CC1)C(=O)N[C@H]1CC(=O)NCCCC[C@@H](C(N)=O)NC(=O)[C@H](Cc2c[nH]c3ccccc23)NC(=O)[C@H](CCCNC(=N)N)NC(=O)[C@@H](Cc2ccccc2)NC(=O)[C@H](Cc2c[nH]cn2)NC1=O [gallium-68 labelled] has a tissue uptake of 0.4 ± 0.1 %ID/g (C57BL/6J mice male B16-F10 tumour, testes; 2 h post injection, unblocked).
With CCCC[C@@H]1NC(=O)[C@@H](NC(=O)[C@H](CCC(=O)O)NC(=O)CNC(=O)CN2CCN(CC(=O)O)CCN(CC(=O)O)CCN(CC(=O)O)CC2)CCCCNC(=O)C[C@@H](C(N)=O)NC(=O)[C@H](C(C)C)NC(=O)[C@@H]2CCCN2C(=O)[C@H](CCCNC(=N)N)NC(=O)CNC(=O)[C@H](Cc2c[nH]c3ccccc23)NC(=O)[C@H](CCCNC(=N)N)NC(=O)[C@@H](Cc2ccccc2)NC(=O)[C@H](Cc2c[nH]cn2)NC(=O)[C@H](CCC(=O)O)NC1=O [gallium-67 labelled] the tissue uptake was 0.25 ± 0.07 %ID/g (C57 mice with B16/F1 melanoma, liver; intravenous, 4 h).
The tissue uptake of CN1C(=O)[C@@H](Cc2ccc(O)c(I)c2)NC(=O)CNC(=O)[C@H](Cc2ccc3ccccc3c2)NC(=O)[C@H](CCCNC(=N)N)NC(=O)[C@H]1CCCNC(=O)c1ccc(CNC(=O)CN2CCN(CC(=O)O)CCN(CC(=O)O)CCN(CC(=O)O)CC2)cc1 [lutetium-177 labelled] is reported as 6.29 ± 0.36 %ID/g (measured: 177Lu radioactivity; female CB-17 SCID mice, Daudi xenograft, liver; intravenous, 0.16 nmol per mouse, 96 h).
For N=C(N)NCCC[C@H](NC(=O)CON=C[C@H](F)[C@@H](O)[C@H](O)[C@H](O)CO)C(=O)NCC(=O)N[C@@H](CC(=O)O)C(=O)O [fluorine-18 labelled], the tissue ratio was 1.25 ± 0.08 (nude mice, U-87 MG xenograft; intravenous, 2 h; baseline: tumour over liver).
NC12CNCCNCC(NCc3ccc(CNC(=O)CCCC(=O)NCc4ccc(-c5nncnn5)cc4)cc3)(CNCCNC1)CNCCNC2.[64Cu+2] gave a tissue uptake of 0.15 ± 0.01 %ID/g (athymic nude mice SW1222 xenograft, muscle; 12 h post injection, 24 h accumulation interval, with: huA33-TCO pretargeting).
With CCCC[C@H](NC(=O)CNC(=O)CNC(=O)CN1CCN(CC(=O)O)CCN(CC(=O)O)CC1)C(=O)N[C@H]1CC(=O)NCCCC[C@@H](C(N)=O)NC(=O)[C@H](Cc2c[nH]c3ccccc23)NC(=O)[C@H](CCCNC(=N)N)NC(=O)[C@@H](Cc2ccccc2)NC(=O)[C@H](Cc2c[nH]cn2)NC1=O [gallium-67 labelled] the tissue uptake was 0.85 ± 0.23 %ID/g (female C57 mice, B16/F1 melanoma, spleen; intravenous, 0.037 MBq, 24 h).
O=C([O-])c1cccc(CN(CCN(Cc2cn(Cc3ccccc3)nn2)Cc2cccc(C(=O)[O-])n2)Cc2cn(Cc3ccccc3)nn2)n1.[64Cu+2] gave a tissue uptake of 4.8 %ID/g (healthy athymic nude mice, kidney; intravenous, 24 h).

Repeated from above:
NC12CNCCNCC(NCc3ccc(CNC(=O)CCCC(=O)NCc4ccc(-c5nncnn5)cc4)cc3)(CNCCNC1)CNCCNC2.[64Cu+2] gave a tissue uptake of 0.15 ± 0.01 %ID/g (athymic nude mice SW1222 xenograft, muscle; 12 h post injection, 24 h accumulation interval, with: huA33-TCO pretargeting).
